Results gathered from unrelated publications.
“And” joins repeats or separate records; there may be more than shown. ± gives the spread as reported.

| Compound | test | system | setting | how to read | quantity | value |
| --- | --- | --- | --- | --- | --- | --- |
| Cn1cc(Nc2nccc(-c3ccc4c(c3)CN(C3COC3)CC[C@H]4NC(=O)c3cn(C(C)(C)C)nn3)n2)cn1 | item: PKCθ signaling in T-cells | splenic B cells, mice | 30 mg/kg, IgD-activated in vivo | reference: vehicle, direction not given | pathway activation z-score | 2.69 |
| Cc1n[nH]c2ccc(-c3cc(OC[C@@H](N)Cc4ccccc4)cnc3-c3ccoc3)cc12 | kinase binding, competitor, MIB/MS competition, item: IKS1 | Candida albicans cell lysate | 1 µM | reference: DMSO | log2 fold change | -0.0927 |
| CC(C)[C@H](C(=O)Nc1ccc(C(=O)NO)cc1)c1ccccc1 | volumetric MRI | human, right vagal schwannoma | dose not given, end of treatment, day 835 |  | annual tumour growth rate | 22.4 %/year |
| NCC(=O)Nc1cncc(-c2nn3c(=O)cc(N4CCNCC4)nc3s2)c1 | ADP-induced platelet aggregation, light transmission aggregometry | human, stable CAD on aspirin, ex vivo platelets | subcutaneous, 0.04 mg/kg, 60 min post-dose, mean value, together with: ADP 20 µM |  | inhibition | 28.6% |
| CCN(CC)CCNC(=O)c1cc(S(C)(=O)=O)ccc1OC | catalepsy, bar test | female CD-1 mice | intraperitoneal, 200 mg/kg, 90 min, maximum 1 min |  | time on bar | 28.9 s |
| COc1nnc2ccc(N3CCC(c4ccc(OCCN5CCN(C)C(=O)[C@H]5C)cc4)CC3)nn12 |  | mice | 0.075 mg/kg |  | time HEXIM1 above threshold | 6.8 h |
| CC#CC(=O)N[C@H]1CCCN(c2c(F)cc(C(N)=O)c3[nH]c(C)c(C)c23)C1 |  | human, peripheral blood | 0.3 mg once daily, day 15 | reference: baseline | B cells | 46.5 % change |
| CC(c1cc2ccccc2s1)N(O)C(N)=O (stereo not shown) |  | human blood | 3 µM, together with: A23187 |  | EPA level | 72100 ± 19000 pg/mL |
| N#Cc1cccc(OC(=O)N2CCC(C(c3ccccc3)c3ccccc3)CC2)c1 | rebound tonometry | normotensive mice, eye | topical, dose not given, single application |  | intraocular pressure decrease | ~4.5 mmHg |
| C[C@@H](O)CCOC(=O)C[C@@H](C)O | item: C2 acylcarnitine | human, plasma | 60 min, log2-transformed values |  | metabolite level | 3.38 ± 0.54 µmol/L |
| N#Cc1ccc2c(-c3ccncc3)c(-c3ccc(F)cc3)nn2c1 | kinase binding, competitor, MIB/MS competition, item: HRK1 | Candida albicans cell lysate | 10 µM | reference: DMSO | log2 fold change | 0.484 |
| C[C@H]1C[C@H]2CSC(N)=N[C@@]2(c2nc(NC(=O)c3ccc(OC(F)F)cn3)cs2)CO1 | item: total Aβ | healthy adults, plasma | 15 mg once daily, day 10 | reference: placebo | percent change from baseline | -48.7% |
| C=CCn1c(=O)c2cnc(Nc3ccc(N4CCN(C)CC4)cc3)nc2n1-c1ccc2c(n1)[C@@](O)(CC)CC2 |  | MCF7 xenograft, BALB/c nude mice | oral, 80 mg/kg once daily x 22, day 28 |  | tumour volume difference | -92.4 ± 6.4 mm3 |
| O=C(O)/C=C/c1ccc(Cn2ccnc2)cc1 |  | Rattus norvegicus, MCAO/R model, plasma | iv, dose not given, 4 h post-treatment |  | thrombin time | 62.8 s |
| O=c1cc(-c2ccc(O)cc2)oc2c([C@@H]3OC[C@H](O)[C@H](O)[C@H]3O)c(O)c([C@@H]3O[C@H](CO)[C@@H](O)[C@H](O)[C@H]3O)c(O)c12 |  | HFpEF mice | oral, 20 and 40 mg/kg/day |  | mitral E peak velocity | decreased |
| C[C@@H]1CCC[C@H](n2cnc(-c3cc(Cl)ccc3-n3cc(Cl)nn3)cc2=O)c2cc(ccn2)-c2c(cnn2C(F)F)NC1=O |  | rabbit plasma | IC2× aPTT, Actin FS reagent |  | concentration for aPTT prolongation | 2200 nM |
| CN[C@@H]1COc2c(S(=O)(=O)NC(=O)Nc3c4c(cc5c3CCC5)CCC4)cnn2C1 | item: IL-1β | human participants, whole blood ex vivo | 150 mg single dose, 336 h, together with: LPS/ATP | reference: baseline | inhibition | 7.9% |
| CO[C@H]1CC[C@H](N2C(=O)CNc3ncc(-c4ccc(C(C)(C)O)nc4)nc32)CC1 | flow cytometry | stimulated T cells, human, blood | 60 mg single dose, 5 h, mean | reference: baseline | p4EBP1 change from baseline | -33.3% |
| O=C1Nc2cc3[nH]nc(-c4ccncc4)c3cc2CN1Cc1ccccc1 | RECIST v1.1 | human, relapsed or refractory advanced solid tumours | intravenous, 0.45 mg/kg, pooled schedules |  | stable disease, best response | 0% |
| Cn1cc([C@H]2C[C@H]3CSC(N)=N[C@@]3(c3ccc(F)cc3F)CO2)cn1 | item: Aβx-42 | Mus musculus wild-type, brain | subcutaneous, 50 mg/kg, 3 h |  | Aβ42 level | 0.35 ng/g |
| c1ccc(-c2n[nH]cc2-c2ccnc3ccccc23)nc1 | kinase binding, competitor, MIB/MS competition, item: NPR1 | Candida albicans cell lysate | 1 µM | reference: DMSO | log2 fold change | 1.5 |
| Cc1cc(Nc2ccc(S(F)(F)(F)(F)F)cc2)n2nc(C(C)(F)F)nc2n1 | item: dihydroorotate | female CD-1 mice, pooled urine | oral, 300 mg/kg daily, 0-8 h after dose 3 |  | DHO concentration | 3.63 ± 0.21 µM |

| Compound | test | system | setting | how to read | quantity | value |
| --- | --- | --- | --- | --- | --- | --- |
| CN(C)C(=O)c1cc2cnc(Nc3ccc(N4CCNCC4)cn3)nc2n1C1CCCC1 | RNA-seq GSEA, item: HALLMARK_COMPLEMENT | MB002 tumour | concentration not given, in vivo | reference: vehicle, direction not given | normalized enrichment score | -1.3 |
| COc1ccccc1[C@H](Cn1c(=O)n(C(C)(C)C(=O)O)c(=O)c2c(C)c(-c3ncco3)sc21)OC1CCOCC1 |  | human | 200 mg, post-treatment |  | blood LDL level | 122 ± 23.5 mg/dL |
| CN(C)C(=O)Oc1cccc([N+](C)(C)C)c1 | neuromuscular block reversal | rat | dose not given, 20.5 (unit not given), together with: cisatracurium | reference: T1 twitch | train-of-four ratio | 99.3 |
| CC(C)[C@H](NC(=O)[C@H](Cc1ccc(O)cc1)NC(=O)[C@H](Cc1ccc(O)cc1)NC(=O)[C@@H]1CCCN1C(=O)[C@H](CCC(=O)O)NC(=O)[C@H](CCC(=O)O)NC(=O)[C@H](Cc1c[nH]c2ccccc12)NC(=O)[C@@H]1CCCN1C(=O)[C@@H](NC(=O)[C@H](CCC(N)=O)NC(=O)c1ccc2c(c1)C(=O)OC21c2ccc(O)cc2Oc2cc(O)ccc21)C(C)C)C(=O)N[C@H](C(=O)N[C@@H](CCCCN)C(=O)N[C@@H](CCCCN)C(=O)N[C@@H](CO)C(=O)N[C@@H](CO)C(=O)NCC(=O)NCC(N)=O)C(C)C | nerve penetration depth | human head and neck surgery, nerves | 500 mg, improved | reference: white light | share of responses | 30.8% |
| N#Cc1ccc2c(c1)[C@H]1CCCN(C(=O)c3ccc4[nH]cnc4c3)[C@H]1C2 | item: LDL | human | 20 mg once daily, day 28, adjusted mean |  | change from baseline | -2.04 mg/dL |
| O=C(OC(C(F)(F)F)C(F)(F)F)N1CCN(Cc2cccc(Oc3ccccc3)c2)CC1 | PET blocking study | rhesus monkey, brain THA | 0.3 mg/kg, compound pretreatment, together with: [18F]T-401 tracer |  | k3 | 1.26 min⁻¹ |
| CC(=O)NCC(=O)NCC(=O)N[C@H](C(=O)N[C@@H](Cc1ccc(O)cc1)C(=O)N[C@@H](CO)C(=O)N[C@H]1CSSC[C@@H](C(=O)N[C@@H](CCCNC(=N)N)C(=O)N2CCC[C@H]2C(=O)N[C@@H](CCC(N)=O)C(=O)N[C@@H](CCCNC(=N)N)C(=O)NCC(=O)NCCC(=O)N[C@@H](CCCCNC(=O)CN(CC(=O)NCCCC[C@H](NC(=O)CCNC(=O)CNC(=O)[C@H](CCCNC(=N)N)NC(=O)[C@H](CCC(N)=O)NC(=O)[C@@H]2CCCN2C(=O)[C@H](CCCNC(=N)N)NC(=O)[C@@H]2CSSC[C@H](NC(=O)[C@H](CO)NC(=O)[C@H](Cc3ccc(O)cc3)NC(=O)[C@@H](NC(=O)CNC(=O)CNC(C)=O)[C@@H](C)O)C(=O)N[C@@H](Cc3c[nH]cn3)C(=O)N[C@@H](Cc3ccccc3)C(=O)NCC(=O)N[C@@H](C)C(=O)N[C@@H](CC(C)C)C(=O)N[C@@H]([C@@H](C)O)C(=O)N[C@@H](Cc3c[nH]c4ccccc34)C(=O)N[C@@H](C(C)C)C(=O)N2)C(N)=O)C(=O)CCN)C(N)=O)NC(=O)[C@H](C(C)C)NC(=O)[C@H](Cc2c[nH]c3ccccc23)NC(=O)[C@H]([C@@H](C)O)NC(=O)[C@H](CC(C)C)NC(=O)[C@H](C)NC(=O)CNC(=O)[C@H](Cc2ccccc2)NC(=O)[C@H](Cc2c[nH]cn2)NC1=O)[C@@H](C)O |  | healthy BALB/c mice | subcutaneous, 0.16 mg/kg, 14 d, single dose |  | haematocrit | 46.9% |
| O=C(O)CNC(=O)Cc1ccccc1 |  | ventricular cardiomyocytes, C57BL/6 mouse | dose not given, 0.168 s |  | sarcomere length | 1.64 µm |
| CN(C(=O)n1cnc(-c2ccc[n+]([O-])c2)c1)C1CCCCC1 | item: LEA | human, plasma | 40 mg single dose |  | AUC(0-t) | 330 ng·h/mL |
| Cc1cc(F)cc2c(CCC(=O)N[C@@H]3C(=O)NC[C@H]3O)c(-c3ccc(F)cc3)[nH]c12 | immunohistochemistry | mice, APOL1 G2, single copy, kidney | oral, 30 mg/kg twice daily, together with: IFNγ plasmid injection | direction not given | nephrin H-score | 101 and 100 and 99.5 and 110 and 112 |
| C[C@@H](NC(=O)N1C(=O)[C@H](Cc2ccnc(N)c2)[C@H]1C(=O)O)C1CCCCC1 |  | human | iv infusion, 0.3 mg/kg/h, 24 h |  | ACT Emax | 132 s |
| OC(CCN1CCCCC1)(c1ccccc1)C1CC2C=CC1C2 (stereo not shown) | resting-state EEG | healthy elderly humans | oral, 4 mg, eyes closed, LS mean | reference: baseline | change in EEG Beta1-power Pz-O1 | -16.6% |
| COc1ccc(-c2cncc(N[C@@H](C)c3cccc(NC(=O)c4cncc(C)c4)c3)n2)cc1OC | item: rno-miR-362-3p | rat SU5416/hypoxia model, lung | dose not given, unit not given | reference: SU5416/hypoxia vehicle | delta delta Ct | 0.692 |
| CC(C)NCC(O)c1ccc(O)c(O)c1 (stereo not shown) |  | ventricular cardiomyocytes, C57BL/6 mouse | dose not given, 0.684 s |  | sarcomere length | 1.72 µm |
| N#Cc1ccn2c(-c3ccncc3)c(-c3ccc(F)cc3)nc2c1 | kinase binding, competitor, MIB/MS competition, item: CMK1 | Candida albicans cell lysate | 1 µM | reference: DMSO | log2 fold change | 0.118 |
| Cc1sc2c(c1C)C(c1ccc(Cl)cc1)=N[C@@H](CC(=O)NCCCCCCCCNC(=O)COc1cccc3c1C(=O)N(C1CCC(=O)NC1=O)C3=O)c1nnc(C)n1-2 (stereo partly shown) | flow cytometry | 4T1 tumour-bearing mice, lymph nodes | dose not given |  | CD80+ CD86+ dendritic cells | 31.8% and 33.4% and 30.2% and 30% |
| COc1cc2cc(-c3ccc(CC(=O)Nc4cc(C(C)(C)C(F)(F)F)no4)cn3)cnc2cc1OC | RECIST v1.1 | human RET-mutant medullary thyroid cancer | 75 mg, phase I |  | best overall response PD | 0% |
| NC(=O)c1cnc2[nH]ccc2c1N[C@@H]1[C@@H]2CC3C[C@H]1C[C@@](O)(C3)C2 | CD4+ central memory T cells, flow cytometry | Japanese humans, peripheral blood | 200 mg single dose | reference: baseline | percent change | 1% |
| Cc1cnc(Nc2ccc(OCCOc3ccc(/N=N/c4ccc(C(=O)NCCC(=O)O)cc4)cc3C(=O)O)cc2)nc1Nc1cccc(S(=O)(=O)NC(C)(C)C)c1 |  | mice, DSS-induced colitis | 10 mg/kg |  | disease activity index | 0 |
| C[C@H](Oc1ccc(Br)cc1-c1ccon1)C(=O)O | handgrip dynamometry | healthy human males | 600 mg once daily, multiple doses | reference: placebo | peak grip force | -2.1 kg |
| N#CCC1CCN(c2nc(Nc3ccc(N4CCC(O)CC4)cc3)c3c(=O)[nH]ncc3n2)CC1 | Olink multiplex, item: CDCP1 | human, serum | 80 mg, day 15 | reference: baseline | fold change from baseline | -1.29 |

Excerpt of the above:
| Compound | test | system | setting | how to read | quantity | value |
| --- | --- | --- | --- | --- | --- | --- |
| C[C@@H]1CCC[C@H](n2cnc(-c3cc(Cl)ccc3-n3cc(Cl)nn3)cc2=O)c2cc(ccn2)-c2c(cnn2C(F)F)NC1=O |  | rabbit plasma | IC2× aPTT, Actin FS reagent |  | concentration for aPTT prolongation | 2200 nM |
| CN[C@@H]1COc2c(S(=O)(=O)NC(=O)Nc3c4c(cc5c3CCC5)CCC4)cnn2C1 | item: IL-1β | human participants, whole blood ex vivo | 150 mg single dose, 336 h, together with: LPS/ATP | reference: baseline | inhibition | 7.9% |
| CO[C@H]1CC[C@H](N2C(=O)CNc3ncc(-c4ccc(C(C)(C)O)nc4)nc32)CC1 | flow cytometry | stimulated T cells, human, blood | 60 mg single dose, 5 h, mean | reference: baseline | p4EBP1 change from baseline | -33.3% |
| O=C1Nc2cc3[nH]nc(-c4ccncc4)c3cc2CN1Cc1ccccc1 | RECIST v1.1 | human, relapsed or refractory advanced solid tumours | intravenous, 0.45 mg/kg, pooled schedules |  | stable disease, best response | 0% |
| Cn1cc([C@H]2C[C@H]3CSC(N)=N[C@@]3(c3ccc(F)cc3F)CO2)cn1 | item: Aβx-42 | Mus musculus wild-type, brain | subcutaneous, 50 mg/kg, 3 h |  | Aβ42 level | 0.35 ng/g |
| c1ccc(-c2n[nH]cc2-c2ccnc3ccccc23)nc1 | kinase binding, competitor, MIB/MS competition, item: NPR1 | Candida albicans cell lysate | 1 µM | reference: DMSO | log2 fold change | 1.5 |
